Measured values pooled from the literature.
Each line is one published result; not all experiments were run side by side. “And” joins repeats or separate records; there may be more than shown. ± marks the error that the study gave.
Oprk1: Kappa-type opioid receptor (Oprk1, Rattus norvegicus, UniProt P34975)
MC1R: Melanocyte-stimulating hormone receptor (MC1R, Homo sapiens, UniProt Q01726)
Sigmar1: Sigma non-opioid intracellular receptor 1 (Sigmar1, Rattus norvegicus, UniProt Q9R0C9)
ampC: Beta-lactamase (ampC, Escherichia coli K-12, UniProt P00811)

| Structure (SMILES) | target | assay | system | conditions | Ki |
| --- | --- | --- | --- | --- | --- |
| CC(C)[C@H](NC(=O)c1ccc(CNc2nc3c(c(=O)[nH]2)CCC3)cc1)C(=O)NC1COC1 | Collagenase 3 (MMP13, Homo sapiens, UniProt P45452) | enzyme activity, inhibitor | – | – | 0.01 µM and 0.0103 µM |
| Cc1nc(-c2ccc(Cl)cc2)nc2sc3c(=O)n(CCN4CCOCC4)cnc3c12 | Acetylcholinesterase (ache, Electrophorus electricus, UniProt O42275) | enzyme activity, inhibitor | – | – | 0.3 µM |
| Cc1cc2c(cc1Cl)Cc1c(C(=O)NC3CCCCC3)nn(-c3ccc(Cl)cc3Cl)c1-2 | Cannabinoid receptor 1 (Cnr1, Mus musculus, UniProt P47746) | binding, radioligand displacement | mouse brain homogenate without cerebellum | together with: [3H]CP-55,940 | 0.875 ± 0.025 µM |
| CC(C)C[C@H](NC(=O)[C@H](CCCNC(=N)N)NC(=O)[C@H](Cc1ccccc1)NC(=O)[C@H](Cc1ccccc1)NC(=O)[C@H](Cc1ccccc1)N(C)C(=O)CN)C(=O)N[C@@H](CCCNC(=N)N)C(=O)N[C@@H](CCCNC(=N)N)C(=O)N[C@H](C)C(=O)N[C@@H](CCCNC(=N)N)C(=O)N1CCC[C@H]1C(=O)N[C@@H](CCCCN)C(N)=O | Oprk1 | ligand displacement, radioligand | – | – | 0.0289 µM |
| CC[C@H](C)[C@H](NC(=O)CN)C(=O)N[C@H](C(=O)N[C@@H](CC(N)=O)C(=O)N[C@H](C(=O)N[C@@H](CC(C)C)C(=O)N[C@@H](CCC(N)=O)C(=O)N[C@@H](CCCCN)C(=O)N[C@@H](Cc1ccc(O)cc1)C(=O)N[C@@H](Cc1ccc(O)cc1)C(=O)N[C@H]1CSSC[C@@H]2NC(=O)[C@H](CCCCN)NC(=O)[C@H](CCCNC(=N)N)NC(=O)CNC(=O)[C@H](CCCNC(=N)N)NC(=O)[C@H]([C@@H](C)O)NC(=O)[C@H](CO)NC(=O)[C@@H]3CSSC[C@H](NC(=O)[C@H](CCCNC(=N)N)NC(=O)CNC(=O)CNC(=O)[C@H](CCCNC(=N)N)NC(=O)[C@H](C(C)C)NC(=O)[C@H](CCCNC(=N)N)NC1=O)C(=O)N[C@@H](C)C(=O)N[C@@H](C(C)C)C(=O)N[C@@H](CC(C)C)C(=O)N[C@@H](CO)C(=O)N[C@@H](CSSC[C@@H](C(=O)N[C@@H](CCC(N)=O)C(=O)N[C@@H](CCC(N)=O)C(=O)N[C@@H](CCC(N)=O)C(=O)N[C@@H](CCC(N)=O)C(N)=O)NC2=O)C(=O)N[C@@H](CC(C)C)C(=O)N1CCC[C@H]1C(=O)N[C@@H](CCCCN)C(=O)N[C@@H](CCC(=O)O)C(=O)N[C@@H](CCC(=O)O)C(=O)N[C@@H](CCC(N)=O)C(=O)N[C@@H]([C@@H](C)CC)C(=O)NCC(=O)N[C@@H](CCCCN)C(=O)N3)[C@@H](C)O)[C@@H](C)CC | MC1R | ligand displacement in cells | – | – | 0.193 µM |
| N=C(N)NC(=O)c1ccc(C(=O)NCCCC[C@H](NC(=O)CNC(=O)CCC(=O)NN=Cc2cc(C=NNC(=O)CCC(=O)NCC(=O)N[C@@H](CCCCNC(=O)c3ccc(C(=O)NC(=N)N)[nH]3)C(=O)N[C@@H](Cc3c[nH]c4ccccc34)C(=O)N[C@@H](CCCCN)C(N)=O)cc(C=NNC(=O)CCC(=O)NCC(=O)N[C@@H](CCCCNC(=O)c3ccc(C(=O)NC(=N)N)[nH]3)C(=O)N[C@@H](Cc3c[nH]c4ccccc34)C(=O)N[C@@H](CCCCN)C(N)=O)c2)C(=O)N[C@@H](Cc2c[nH]c3ccccc23)C(=O)N[C@@H](CCCCN)C(N)=O)[nH]1 | Tryptase beta-2 (TPSB2, Homo sapiens, UniProt P20231) | enzyme activity, high-affinity mode, inhibitor | – | – | 0.114 µM |
| CC[C@H](C)[C@H](NC(=O)[C@@H]1CSSC[C@H](NC(=O)[C@H](Cc2ccc(O)cc2)NC(=O)CNC(C)=O)C(=O)N[C@@H](CO)C(=O)N[C@@H](CCCNC(=N)N)C(=O)N[C@@H](CO)C(=O)N[C@@H](Cc2ccc(O)cc2)C(=O)N2CCC[C@H]2C(=O)N2CCC[C@H]2C(=O)N[C@@H](C(C)C)C(=O)N1)C(=O)N1CCC[C@H]1C(=O)N[C@@H](CC(=O)O)C(=O)O | Mannan-binding lectin serine protease 2 (Homo sapiens, UniProt O00187) | enzyme activity, inhibitor | – | – | 0.14 µM |
| CCCC(=O)c1ccc2c(c1)sc(=O)n2CCCN1CCCCCC1 | Sigmar1 | binding, radioligand binding | rat liver membranes | together with: [3H](+)-pentazocine 5 nM | 0.0026 ± 0.0004 µM |
| OC(COCc1ccccc1Cl)CN1CC=C(c2c[nH]c3ccccc23)CC1 (racemic) | Sodium-dependent noradrenaline transporter (SLC6A2, Homo sapiens, UniProt P23975) | ligand displacement, radioligand | – | – | > 10 µM |
| CCCCCCCC[C@@H](O)[C@H](C)C(=O)N[C@H](CCC(=O)O)C(=O)N[C@H](CC(=O)O)C(=O)N[C@H](CC(C)C)C(=O)N[C@H](CC(C)C)C(=O)N[C@H](CC(C)C)C(=O)N[C@H](CC(C)C)C(=O)N[C@@H](C(=O)O)C(C)C | Mediator of RNA polymerase II transcription subunit 25, ACID domain; with ATF6α (Homo sapiens, UniProt Q71SY5) | fluorescence polarization | – | together with: NP40 or Triton X-100 | no effect |
| COC(=O)C1C(OC(c2ccc(Cl)cc2)c2ccc(Cl)cc2)CC2CCC1N2C (single isomer, unassigned) | Sigma-2 receptor/TMEM97 (Cavia porcellus, UniProt H0V073) | radioligand binding | – | racemate, together with: [3H]DTG, (+)-pentazocine mask | 0.234 µM |
| CC[C@H](C)[C@H](NC(=O)CN)C(=O)N[C@H](C(=O)N[C@@H](CC(N)=O)C(=O)N[C@H](C(=O)N[C@@H](CC(C)C)C(=O)N[C@@H](CCC(N)=O)C(=O)N[C@@H](CCC(N)=O)C(=O)N[C@@H](Cc1ccc(O)cc1)C(=O)N[C@@H](Cc1ccc(O)cc1)C(=O)N[C@H]1CSSC[C@@H]2NC(=O)[C@H](CCC(N)=O)NC(=O)[C@H](CCC(N)=O)NC(=O)CNC(=O)[C@H](CCC(N)=O)NC(=O)[C@H]([C@@H](C)O)NC(=O)[C@H](CO)NC(=O)[C@@H]3CSSC[C@H](NC(=O)[C@H](CCCNC(=N)N)NC(=O)CNC(=O)CNC(=O)[C@H](CCCNC(=N)N)NC(=O)[C@H](C(C)C)NC(=O)[C@H](CCC(N)=O)NC1=O)C(=O)N[C@@H](C)C(=O)N[C@@H](C(C)C)C(=O)N[C@@H](CC(C)C)C(=O)N[C@@H](CO)C(=O)N[C@@H](CSSC[C@@H](C(=O)N[C@@H](CCCNC(=N)N)C(=O)N[C@@H](CCCNC(=N)N)C(=O)N[C@@H](CCCCN)C(=O)N[C@@H](CCCCN)C(N)=O)NC2=O)C(=O)N[C@@H](CC(C)C)C(=O)N1CCC[C@H]1C(=O)N[C@@H](CCCCN)C(=O)N[C@@H](CCC(=O)O)C(=O)N[C@@H](CCC(=O)O)C(=O)N[C@@H](CCC(N)=O)C(=O)N[C@@H]([C@@H](C)CC)C(=O)NCC(=O)N[C@@H](CCC(N)=O)C(=O)N3)[C@@H](C)O)[C@@H](C)CC | MC1R | ligand displacement in cells | – | – | > 5 µM |
| O=C(O)C1(n2cnnn2)CCCCC1 | ampC | – | – | – | < 10000 µM |
| C[C@]12CC[C@@H]3c4cc(Cl)c(O)c(Cl)c4CC[C@H]3[C@@H]1CCC2=O | Aldo-keto reductase family 1 member C1 (AKR1C1, Homo sapiens, UniProt Q04828) | enzyme activity, inhibitor, absorbance | – | – | 0.69 µM |
| Cc1cc(O)cc(C)c1CC(N)C(=O)NC1CCNc2c(F)cc(Cc3ccccc3)cc21 (stereo not drawn) | Kappa-type opioid receptor (OPRK1, Homo sapiens, UniProt P41145) | ligand displacement, radioligand | – | cell membranes | 0.009 µM |
| CCCc1ccc2c(c1)sc(=O)n2CCCN1CCCCCC1 | Sigmar1 | binding, radioligand binding | rat liver membranes | together with: [3H](+)-pentazocine 5 nM | 0.0014 ± 0.0001 µM |
| C[C@@H](O)[C@H](NC(=O)[C@H]1NC(=O)[C@H]([C@@H](C)O)NC(=O)[C@H](CCCN)NC(=O)[C@@H](Cc2c[nH]c3ccccc23)NC(=O)[C@H](Cc2ccc(O)cc2)NC(=O)[C@@H](NC(=O)[C@H](N)Cc2ccccc2)CSSC1(C)C)C(N)=O | Mu-type opioid receptor (OPRM1, Homo sapiens, UniProt P35372, C348A/C353A) | cell-free assay | – | – | 0.00032 µM |
| OB(O)c1cc2ccc(OCc3ccccc3)cc2[nH]1 | ampC | enzyme activity, inhibitor | – | together with: CENTA | 2.37 µM |
| CN(C)C(=N)N=C(N)N | Arginase-2, mitochondrial (ARG2, Homo sapiens, UniProt P78540) | enzyme activity, inhibitor, absorbance | – | – | > 50000 µM |
| CCCCCCCCCCCCCCCc1ccc(COP(O)(O)=S)cc1 | Autotaxin (ENPP2, Homo sapiens, UniProt Q13822) | – | – | free enzyme | 4.45 µM |
| CC(=O)N[C@@H](CCCNC(=N)N)C(=O)N[C@@H](Cc1ccc(O)cc1)C(=O)N[C@@H](CCCN/C(N)=N/C(=O)NCCCCN)C(=O)N[C@@H](CC(C)C)C(=O)N[C@@H](CCCNC(=N)N)C(=O)N[C@@H](Cc1ccc(O)cc1)C(N)=O | Neuropeptide Y receptor type 1 (NPY1R, Homo sapiens, UniProt P25929) | ligand displacement, radioligand | – | – | 4.83 µM |
| N=C(N)NCCC[C@@H]1NC(=O)[C@@H](NC(=O)[C@H](Cc2ccccc2)NC(=O)CNC(=O)CNC(=O)[C@H](Cc2ccc(O)cc2)NCc2ccccc2)CC(=O)NC[C@@H](C(=O)N[C@@H](CCCNC(=N)N)C(=O)N2CCC[C@H]2C(=O)N[C@@H](CCCCN)C(N)=O)NC(=O)[C@H](CCCNC(=N)N)NC1=O | Oprk1 | cell-free assay | – | – | 0.41 µM |
| CC(=O)NCC(=O)N(C)[C@@H](Cc1ccccc1)C(=O)N[C@@H](Cc1ccccc1)C(=O)N[C@@H](Cc1c[nH]c2ccccc12)C(=O)N[C@@H](CCCNC(=N)N)C(=O)N[C@@H](CC(C)C)C(=O)N[C@@H](CCCNC(=N)N)C(=O)N[C@@H](CCCNC(=N)N)C(=O)N[C@H](C)C(=O)N[C@@H](CCCNC(=N)N)C(=O)N1CCC[C@H]1C(=O)N[C@@H](CCCCN)C(N)=O | Oprk1 | ligand displacement, radioligand | – | – | 0.0219 µM |
| CC(C)C[C@H](NC(=O)[C@H](CC(C)C)NC(=O)[C@H](CC(=O)O)NC(=O)[C@H](CC(C)C)NC(=O)[C@@H](NC(=O)[C@H](CCC(=O)O)NC(=O)[C@H](CO)NC(=O)[C@H](Cc1ccc(C(=O)c2ccccc2)cc1)NC(=O)[C@H](C)NC(=O)[C@@H](N)[C@@H](C)O)C(C)C)C(=O)N[C@@H](CCCNC(=N)N)C(=O)N[C@@H](CCCNC(=N)N)C(=O)NCC(=O)NCC(=O)NCC(=O)N[C@@H](CO)C(=O)N[C@@H](CCCCNC(=O)CCCC[C@@H]1SC[C@@H]2NC(=O)N[C@@H]21)C(N)=O | ATP2B4 (Homo sapiens, UniProt P23634) | Ca2+-Mg2+-ATPase activity, inhibitor | erythrocyte ghosts | human erythrocyte, together with: Ca2+ | 50 ± 6 µM |

Some of these lines once more:
| Structure (SMILES) | target | assay | system | conditions | Ki |
| --- | --- | --- | --- | --- | --- |
| CC(=O)NCC(=O)N(C)[C@@H](Cc1ccccc1)C(=O)N[C@@H](Cc1ccccc1)C(=O)N[C@@H](Cc1c[nH]c2ccccc12)C(=O)N[C@@H](CCCNC(=N)N)C(=O)N[C@@H](CC(C)C)C(=O)N[C@@H](CCCNC(=N)N)C(=O)N[C@@H](CCCNC(=N)N)C(=O)N[C@H](C)C(=O)N[C@@H](CCCNC(=N)N)C(=O)N1CCC[C@H]1C(=O)N[C@@H](CCCCN)C(N)=O | Oprk1 | ligand displacement, radioligand | – | – | 0.0219 µM |
| CC(C)C[C@H](NC(=O)[C@H](CC(C)C)NC(=O)[C@H](CC(=O)O)NC(=O)[C@H](CC(C)C)NC(=O)[C@@H](NC(=O)[C@H](CCC(=O)O)NC(=O)[C@H](CO)NC(=O)[C@H](Cc1ccc(C(=O)c2ccccc2)cc1)NC(=O)[C@H](C)NC(=O)[C@@H](N)[C@@H](C)O)C(C)C)C(=O)N[C@@H](CCCNC(=N)N)C(=O)N[C@@H](CCCNC(=N)N)C(=O)NCC(=O)NCC(=O)NCC(=O)N[C@@H](CO)C(=O)N[C@@H](CCCCNC(=O)CCCC[C@@H]1SC[C@@H]2NC(=O)N[C@@H]21)C(N)=O | ATP2B4 (Homo sapiens, UniProt P23634) | Ca2+-Mg2+-ATPase activity, inhibitor | erythrocyte ghosts | human erythrocyte, together with: Ca2+ | 50 ± 6 µM |
